Results from different studies.
Numbered parts are unrelated; each lists some results of a single study.

Study 1 — technique: EMSA with sequencing; form: double-stranded DNA, one strand shown; medium: in vitro; concentration: 10 and 20 nM; reference: negative control set to 0; reading: higher = stronger binding
Target: Hepatocyte nuclear factor 3-alpha (Foxa1, Mus musculus, UniProt P35582, residues 1-468, full length assumed)
Notes: whole designed probe, mean of two concentrations, ends assumed
All sequences stand within: GTGAGCGGTGCCCATTGATGGGGAAC … TTTCACTGGGATCGTGGGGAC
Target sequence (chain): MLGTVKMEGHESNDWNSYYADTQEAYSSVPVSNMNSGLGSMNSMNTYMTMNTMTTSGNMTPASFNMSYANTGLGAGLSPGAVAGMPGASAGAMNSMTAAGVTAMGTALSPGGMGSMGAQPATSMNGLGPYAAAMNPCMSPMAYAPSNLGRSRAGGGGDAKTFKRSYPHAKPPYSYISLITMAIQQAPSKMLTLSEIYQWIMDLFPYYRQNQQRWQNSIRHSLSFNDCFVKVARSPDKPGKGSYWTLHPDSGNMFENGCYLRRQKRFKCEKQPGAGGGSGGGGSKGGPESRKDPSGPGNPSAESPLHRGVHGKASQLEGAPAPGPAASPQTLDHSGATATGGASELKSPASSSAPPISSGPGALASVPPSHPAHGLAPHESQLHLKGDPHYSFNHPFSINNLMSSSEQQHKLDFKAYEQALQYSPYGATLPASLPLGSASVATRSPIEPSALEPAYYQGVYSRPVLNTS
Sequence | normalised bound fraction [ratio]
ATCTTCCCCCTCTTCCTTGCCCCACCAGCTCACCTTCCCGGGTTATTTGCAGATAGGAAAATAAATAAAGCCGGCATTCGTTAACGCAGTTCACGCGCATACTGCTGTTTGCTCTGCATGAATCATGGTCCTTACGCGACGCCAGGCTCCGGGAGAGCAAAGCACCGTGTCAGGCGCATGATCCGGGGTGGCC | 0.357
AAGGCATCCCATAGATGATGGTTACAAATCAGCACAGGATTAAAATAGTGCCCCCAACACATTAAAAGCTGACTCTGCTGGGTGTGGCTTAAGTAAACATCTCGTCTCAACTGGACAGCTACCCAGTAACACAGCCACAGAAACCGAAAATATGTGAGTACATAAGTAAAGTGCTTCTTTTGGAGGGGGTGGG | 0.459
CTCATTCCTTGCTTCCGCCAATAATCTGACTAGTAAAGAAGTCACTGCATGCCACAAATTGTCAGTGCTGACTTCCTCAACAAGGAAGTTATTTATTTACTTATTTAATATATATGCAAATTCCGAGTGACTCAGATCTTGAGAATACCAACTCCTGATGCCAACTGATTGTCAGTCATGGCTACAACAGGAG | 0.457
ATGTGAATTTCTTCCGTTCCTTAGGAAAAAAGGATACACCATTTCTATTCATAAAGTGTATACTCTGAGATATTTAATATTAAGTCTTTCTTCATGTTTACATATAACATCTATCCTCTAACTTTATATATGCTTTTATAATAATCTGAACAATGTTAGTGTTGCTGCTTTTAAAATTATGAACTATTTCAAA | 0.326
CCCTCATCCTGGGTGTCGGGGTGGGAGGTGTTCTCATCATGAATGGGAGGCGTACCCAGATCCAGCTCTGCCTTTTTTTAACCAAACCACATTTGTTTACACTCGCTGTTAAGTGACTCACCATCGACATAGCAAGATATGATACATGCCAGGAGAGAAAAAGAAAGTGCTGATGGAAAAATAATCTCATTAG | 0.307

Study 2 — technique: RNAcompete; form: RNA; medium: in vitro; concentration: 20 nM; notes: 7-mer, probes averaged, single round; reference: mean of 7-mers; reading: higher = stronger binding
Target: PABPC1L2, full length, GST fusion (mouse, UniProt A0ABA7IW68)
Construct (chain): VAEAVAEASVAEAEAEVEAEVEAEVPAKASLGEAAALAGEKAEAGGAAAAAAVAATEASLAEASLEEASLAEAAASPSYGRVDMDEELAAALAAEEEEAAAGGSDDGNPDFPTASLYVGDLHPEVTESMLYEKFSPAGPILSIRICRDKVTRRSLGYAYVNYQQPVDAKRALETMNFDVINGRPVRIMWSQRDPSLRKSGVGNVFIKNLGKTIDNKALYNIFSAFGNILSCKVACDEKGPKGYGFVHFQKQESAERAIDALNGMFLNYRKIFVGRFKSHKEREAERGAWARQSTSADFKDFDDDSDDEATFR
Sequence | 7-mer Z-score
GAAAGGG | 0.573
AUAAGGA | 0.175
GAUGCCC | -0.291
UAGAUUA | -0.0446
UGGGCCU | -0.121
GCGGUGC | 0.075
GAGACUG | -0.0935
UUCAAGG | -0.175
GUCUAGA | -0.19
UGUCCUG | -0.302
GUGCGGU | -0.0156
ACGACGC | -0.295
AUCAGAC | 0.138
CUGAUGC | -0.199
UUGUGUG | -0.329
CUAAGUA | -0.177
CCUGAAA | 0.439
CUUAUCC | -0.391
UCGCACU | -0.217
UUAUAUC | -0.217
UGCUAAU | -0.179
CUCAAAG | -0.0591
GCCAAAA | 3.55
AGUCUCU | -0.211
CUUAUUA | -0.244

Study 3 — technique: universal PBM; form: double-stranded DNA, one strand shown; medium: in vitro; concentration: 600 nM; reading: higher = stronger binding
Target: Sal-like protein 4, full length isoform A (SALL4, Homo sapiens, UniProt Q9UJQ4, residues 1-1053)
Chain of UniProt Q9UJQ4 (whole entry, looked up): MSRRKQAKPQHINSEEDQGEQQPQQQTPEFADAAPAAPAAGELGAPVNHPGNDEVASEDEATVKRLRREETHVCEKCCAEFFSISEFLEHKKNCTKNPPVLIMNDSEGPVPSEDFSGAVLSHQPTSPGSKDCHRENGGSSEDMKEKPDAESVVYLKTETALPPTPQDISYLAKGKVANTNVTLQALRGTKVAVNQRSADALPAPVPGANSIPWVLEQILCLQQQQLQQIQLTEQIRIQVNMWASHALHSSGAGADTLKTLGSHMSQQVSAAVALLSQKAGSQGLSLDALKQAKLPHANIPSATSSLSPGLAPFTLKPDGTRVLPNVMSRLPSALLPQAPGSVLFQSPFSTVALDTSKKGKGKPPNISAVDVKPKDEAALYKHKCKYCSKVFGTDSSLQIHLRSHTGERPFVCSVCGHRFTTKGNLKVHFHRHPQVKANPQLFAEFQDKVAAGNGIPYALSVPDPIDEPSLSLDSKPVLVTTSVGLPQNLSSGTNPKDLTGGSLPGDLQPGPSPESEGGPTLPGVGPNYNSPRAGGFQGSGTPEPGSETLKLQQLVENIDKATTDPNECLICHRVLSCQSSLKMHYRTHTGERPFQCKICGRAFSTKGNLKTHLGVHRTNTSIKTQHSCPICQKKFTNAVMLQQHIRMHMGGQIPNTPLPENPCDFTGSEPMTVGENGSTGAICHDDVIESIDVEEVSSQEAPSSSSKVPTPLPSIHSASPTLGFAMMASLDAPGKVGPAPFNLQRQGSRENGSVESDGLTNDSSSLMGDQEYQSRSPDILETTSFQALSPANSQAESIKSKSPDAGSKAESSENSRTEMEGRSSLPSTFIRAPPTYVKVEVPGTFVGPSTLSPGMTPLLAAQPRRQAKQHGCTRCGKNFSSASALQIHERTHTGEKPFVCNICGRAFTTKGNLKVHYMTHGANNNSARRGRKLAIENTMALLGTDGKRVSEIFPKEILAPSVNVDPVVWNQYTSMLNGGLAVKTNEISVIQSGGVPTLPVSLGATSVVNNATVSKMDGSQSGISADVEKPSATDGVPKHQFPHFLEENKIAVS
Notes: 8-mer, flanks averaged, mean of replicates
Sequence | E-score
CAACTACG | 0.113
ATGTGAGA | 0.219
CAAGATAG | -0.0131
ATAACTAA | 0.359
AAGGATCG | 0.0769
ATCAACCG | -0.0713
AACTGCTC | -0.094
ATTCGGAC | 0.115
CAGACGCC | -0.318
CGTCATAC | 0.159
TCGGATAA | 0.188
AGTTGCTA | 0.151
CCAGACTC | -0.192
AGACCCGC | -0.271
CGGCCCCG | -0.419
CTAGTCAA | 0.056
GCCGTCAC | -0.124
ACTAGACT | -0.0873
AATCGCGG | -0.146
ACTCATTG | 0.0387
CGCGCAAC | -0.214
GCGATCTA | -0.0583
CCTTTAAG | -0.0576
AAAAGATG | 0.177
GGACGGAC | -0.393

Study 4 — technique: protein binding microarray; form: double-stranded DNA, one strand shown; medium: in vitro; concentration: not given; reference: not given; reading: higher = stronger binding
Target: Histone acetyltransferase KAT6A, winged helix 1, GST fusion (KAT6A, Homo sapiens, UniProt Q92794, residues 1-85)
Notes: 8-mer, flanks averaged, mean of 2 arrays, mostly near background
Target sequence (chain): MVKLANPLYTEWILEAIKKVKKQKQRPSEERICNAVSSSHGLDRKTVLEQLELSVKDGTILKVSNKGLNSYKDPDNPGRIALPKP
Sequence | E-score
ATGGAAGC | -0.0855
ACTAATGA | -0.151
AACCGAAT | 0.0314
TAAGGCAA | -0.202
ATCCGACG | 0.337
CGTTAAGA | -0.182
CATCTAGG | -0.155
ACGTGACA | -0.225
GGGTAGGA | 0.0897
TCATCAGA | 0.00796
ATACTGAT | -0.177
AAGAAGGC | 0.0536
GGACGTTA | 0.0422
GAGTTGGA | -0.146
CTGTCCCA | -0.179
AACCTACG | 0.0343
CATCAACC | 0.0414
CGAGACGA | -0.0358
CTGGTCGA | -0.155

Study 5 — technique: RNA Bind-n-Seq; form: RNA; medium: in vitro; concentration: not given; reference: input RNA pool; reading: higher = stronger binding
Target: RING finger protein unkempt homolog, zinc fingers 1-6, GST-SBP tag (UNK, Homo sapiens, UniProt Q9C0B0, residues 30-357)
Chain of UniProt Q9C0B0 (30-357, looked up): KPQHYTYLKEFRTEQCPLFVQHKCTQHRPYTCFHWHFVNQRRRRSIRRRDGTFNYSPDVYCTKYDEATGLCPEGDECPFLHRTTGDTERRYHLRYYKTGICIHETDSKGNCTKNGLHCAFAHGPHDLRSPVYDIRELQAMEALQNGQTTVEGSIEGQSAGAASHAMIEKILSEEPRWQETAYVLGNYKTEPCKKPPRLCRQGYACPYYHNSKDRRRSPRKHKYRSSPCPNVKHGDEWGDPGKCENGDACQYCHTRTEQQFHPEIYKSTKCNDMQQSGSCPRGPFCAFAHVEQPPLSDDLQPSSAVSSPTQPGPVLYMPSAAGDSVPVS
Notes: RNA with constant flanks, human and mouse sites, ends assumed
All sequences stand within: GGGAGUUCUACAGUCCGACGAUC … CAACAGAGGAUUGAGCAUCA
Sequence | bound/input enrichment [ratio]
GAAAUGGAAGAUGCACACACAGCUGUUGUGGGUAUUCCUCACGGCUUGGACAACUGGUCGUUUUUUGCAGUUUAUGACGGUCAUGCUGGAUCCCGAGUGGCAAAUUACUGUUCAACACAU | 0.159
UUUUCACCCGAAUGUUUGCCGACCCUCACAGCAAGAGAGUUUUCAGUAUGUUUUUGGAGACCCUCGUGGAUUUUAUAAUCAUUCAUAAGGAUGACUUGCAAGACUGGCUCUUCGUCCUUC | 0.11
AUCACAGACAUCAUAAGUGGCCUUGGCAGUAACAAGUGGAUCCAGCAAAAUCUUCAGUGCUUAGUACUAAACUCAUUAACUCUGUCCCUCGAGGAUCCAUAUGAGCGGUGCUUCAGCCGG | 0.197
AAAGCGGGAGCCAGGCCUGAGUGUUCCUGUCCCUGUGAGUGGGAAGGUCUUCUGGCUCCCCAUCCCACCUGGCUCCAGAGCCUGCCCUCCACAGCUUGCUGCCAAGCUACUCCCUCCCUC | 0.209
UCCUUGGAACCCAGUCAUAUAGGUGACCUGCAGAAAGCAGACACCAGUAGUCAAGGUGCUUUAGUGUUUCUCUCAAAGGACUACGAGAUAGAAAGUCAAAAUCCUCUGGCCUCUCCUACG | 1.54
CGGAAUACUCCUUAUAAAACCCUGGAACCUGUUAAACCCCCAACAGUUCCUAAUGACUAUAUGACCAGUCCUGCUAGGCUUGGAAGUCAGCAUAGUCCAGGCAGGACAGCAUCUUUAAAU | 0.23
GUUUCUACCAUUAUAAAUAUUUGUCUUAAAUAUCUUACCUAUGAUCCAAAUUAUAAUUACGAUGAUGAAGAUGAAGAUGAAAAUGCAAUGGAUGCUGAUGGUGGUGAUGAUGAUGAUCAA | 0.175
UUAUCAAGGAAACAGAAAGAAGAAUUAUGGCAAAGGCUGAAGAAUUUAUUGACAGAUGUGUUGUUAGAAAGCCCAGUGGAUGGGUGGCAGGUAGUGGAAGCCCAGGGUGAAGACAAUAUG | 0.725

Some of these lines once more (study 3):
Sequence | E-score
ACTAGACT | -0.0873
GGACGGAC | -0.393
AAGGATCG | 0.0769
CAACTACG | 0.113
AATCGCGG | -0.146
CGTCATAC | 0.159
